Published values from different studies.
Numbered parts are unrelated; each lists some results of a single study. Several values in a cell are separate wells, animals, samples, runs or records.
Chain of UniProt P18089 (whole entry, looked up): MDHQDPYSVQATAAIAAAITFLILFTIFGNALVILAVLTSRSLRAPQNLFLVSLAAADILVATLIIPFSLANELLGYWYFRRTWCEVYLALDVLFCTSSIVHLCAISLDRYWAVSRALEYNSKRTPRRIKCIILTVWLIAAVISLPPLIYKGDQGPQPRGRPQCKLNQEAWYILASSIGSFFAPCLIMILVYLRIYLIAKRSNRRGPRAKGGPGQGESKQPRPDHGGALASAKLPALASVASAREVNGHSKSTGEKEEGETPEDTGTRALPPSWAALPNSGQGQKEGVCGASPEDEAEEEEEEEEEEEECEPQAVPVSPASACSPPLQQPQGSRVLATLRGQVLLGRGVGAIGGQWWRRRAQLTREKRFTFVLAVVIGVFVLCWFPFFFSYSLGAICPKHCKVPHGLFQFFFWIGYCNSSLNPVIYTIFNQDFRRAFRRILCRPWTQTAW
Chain of UniProt P08173 (whole entry, looked up): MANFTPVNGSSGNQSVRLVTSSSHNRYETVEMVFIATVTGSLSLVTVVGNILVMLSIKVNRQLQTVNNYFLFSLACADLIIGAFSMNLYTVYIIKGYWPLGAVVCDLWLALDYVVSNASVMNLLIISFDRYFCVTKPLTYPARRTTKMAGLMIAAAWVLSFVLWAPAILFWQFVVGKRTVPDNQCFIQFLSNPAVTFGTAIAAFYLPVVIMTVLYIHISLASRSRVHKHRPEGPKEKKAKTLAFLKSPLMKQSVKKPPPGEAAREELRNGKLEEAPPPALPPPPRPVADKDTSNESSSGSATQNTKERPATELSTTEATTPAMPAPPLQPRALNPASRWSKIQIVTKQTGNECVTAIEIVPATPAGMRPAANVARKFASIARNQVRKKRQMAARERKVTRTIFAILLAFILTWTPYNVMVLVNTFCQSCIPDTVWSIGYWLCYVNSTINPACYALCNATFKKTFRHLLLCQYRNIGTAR
Chain of UniProt P54756 (whole entry, looked up): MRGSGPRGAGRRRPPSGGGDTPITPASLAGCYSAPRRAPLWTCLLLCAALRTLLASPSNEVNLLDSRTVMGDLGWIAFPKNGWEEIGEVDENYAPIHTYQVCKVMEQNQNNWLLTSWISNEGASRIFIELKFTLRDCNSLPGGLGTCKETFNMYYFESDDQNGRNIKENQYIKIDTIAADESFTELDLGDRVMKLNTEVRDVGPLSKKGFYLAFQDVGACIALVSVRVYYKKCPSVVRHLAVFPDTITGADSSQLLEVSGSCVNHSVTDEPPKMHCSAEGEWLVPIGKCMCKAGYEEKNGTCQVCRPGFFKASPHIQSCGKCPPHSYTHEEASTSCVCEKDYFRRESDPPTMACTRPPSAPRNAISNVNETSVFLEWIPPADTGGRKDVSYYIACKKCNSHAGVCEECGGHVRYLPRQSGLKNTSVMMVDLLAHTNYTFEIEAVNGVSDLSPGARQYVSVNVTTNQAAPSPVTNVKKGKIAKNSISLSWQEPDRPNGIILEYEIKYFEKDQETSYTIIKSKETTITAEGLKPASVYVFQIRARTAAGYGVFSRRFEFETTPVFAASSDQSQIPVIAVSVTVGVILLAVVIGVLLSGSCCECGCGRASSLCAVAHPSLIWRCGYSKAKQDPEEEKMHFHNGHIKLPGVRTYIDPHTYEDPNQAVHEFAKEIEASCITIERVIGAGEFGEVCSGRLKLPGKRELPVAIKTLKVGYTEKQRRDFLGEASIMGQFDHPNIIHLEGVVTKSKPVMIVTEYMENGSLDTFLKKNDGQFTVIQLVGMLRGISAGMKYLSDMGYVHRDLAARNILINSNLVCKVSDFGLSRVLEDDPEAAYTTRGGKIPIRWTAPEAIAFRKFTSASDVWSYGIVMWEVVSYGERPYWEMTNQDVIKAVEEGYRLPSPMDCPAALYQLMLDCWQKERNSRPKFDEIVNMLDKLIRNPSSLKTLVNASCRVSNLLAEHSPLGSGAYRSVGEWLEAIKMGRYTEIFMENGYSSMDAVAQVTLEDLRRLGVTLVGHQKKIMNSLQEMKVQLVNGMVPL
Chain of UniProt P35368 (whole entry, looked up): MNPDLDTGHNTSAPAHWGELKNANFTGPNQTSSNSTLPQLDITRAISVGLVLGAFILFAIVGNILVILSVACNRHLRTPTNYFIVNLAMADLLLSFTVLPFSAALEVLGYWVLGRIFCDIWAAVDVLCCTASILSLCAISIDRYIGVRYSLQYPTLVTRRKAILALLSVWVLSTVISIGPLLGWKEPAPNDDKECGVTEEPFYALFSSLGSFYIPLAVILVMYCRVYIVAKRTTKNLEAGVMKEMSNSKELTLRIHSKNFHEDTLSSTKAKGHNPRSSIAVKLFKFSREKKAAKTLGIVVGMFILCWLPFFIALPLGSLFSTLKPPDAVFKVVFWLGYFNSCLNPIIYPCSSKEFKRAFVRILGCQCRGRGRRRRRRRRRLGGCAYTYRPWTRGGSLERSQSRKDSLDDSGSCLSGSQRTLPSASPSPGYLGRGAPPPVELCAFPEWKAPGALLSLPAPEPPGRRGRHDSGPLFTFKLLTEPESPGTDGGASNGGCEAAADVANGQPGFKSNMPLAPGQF
Chain of UniProt P21728 (whole entry, looked up): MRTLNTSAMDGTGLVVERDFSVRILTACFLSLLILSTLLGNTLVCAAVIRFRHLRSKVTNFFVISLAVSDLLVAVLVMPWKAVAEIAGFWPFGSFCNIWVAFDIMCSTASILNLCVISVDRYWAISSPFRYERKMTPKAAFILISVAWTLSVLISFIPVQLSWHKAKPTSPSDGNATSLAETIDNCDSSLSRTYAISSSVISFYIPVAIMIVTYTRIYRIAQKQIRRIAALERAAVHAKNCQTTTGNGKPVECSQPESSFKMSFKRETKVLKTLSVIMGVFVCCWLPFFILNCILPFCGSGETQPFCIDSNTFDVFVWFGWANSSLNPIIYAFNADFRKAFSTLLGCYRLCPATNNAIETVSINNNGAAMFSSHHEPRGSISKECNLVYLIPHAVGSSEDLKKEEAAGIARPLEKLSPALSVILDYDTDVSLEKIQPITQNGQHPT
Chain of UniProt Q13976 (whole entry, looked up): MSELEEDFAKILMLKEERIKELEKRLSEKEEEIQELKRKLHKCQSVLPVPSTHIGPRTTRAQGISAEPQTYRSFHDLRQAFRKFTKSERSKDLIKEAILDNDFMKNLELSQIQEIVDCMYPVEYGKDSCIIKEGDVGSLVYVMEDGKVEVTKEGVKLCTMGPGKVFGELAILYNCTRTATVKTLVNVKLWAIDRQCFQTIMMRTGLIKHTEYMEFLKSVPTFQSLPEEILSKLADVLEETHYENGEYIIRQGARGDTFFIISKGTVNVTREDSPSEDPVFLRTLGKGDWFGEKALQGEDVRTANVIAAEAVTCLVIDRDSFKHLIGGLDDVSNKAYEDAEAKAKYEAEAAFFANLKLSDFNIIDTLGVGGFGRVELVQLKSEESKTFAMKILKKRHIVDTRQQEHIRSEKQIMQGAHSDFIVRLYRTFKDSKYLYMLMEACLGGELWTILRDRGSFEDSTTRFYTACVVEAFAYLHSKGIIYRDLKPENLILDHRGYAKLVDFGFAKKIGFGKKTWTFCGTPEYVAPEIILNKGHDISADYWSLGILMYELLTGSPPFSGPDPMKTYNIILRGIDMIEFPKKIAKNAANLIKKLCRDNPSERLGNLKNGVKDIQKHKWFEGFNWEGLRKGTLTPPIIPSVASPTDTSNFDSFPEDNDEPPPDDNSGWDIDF
Chain of UniProt P46098 (whole entry, looked up): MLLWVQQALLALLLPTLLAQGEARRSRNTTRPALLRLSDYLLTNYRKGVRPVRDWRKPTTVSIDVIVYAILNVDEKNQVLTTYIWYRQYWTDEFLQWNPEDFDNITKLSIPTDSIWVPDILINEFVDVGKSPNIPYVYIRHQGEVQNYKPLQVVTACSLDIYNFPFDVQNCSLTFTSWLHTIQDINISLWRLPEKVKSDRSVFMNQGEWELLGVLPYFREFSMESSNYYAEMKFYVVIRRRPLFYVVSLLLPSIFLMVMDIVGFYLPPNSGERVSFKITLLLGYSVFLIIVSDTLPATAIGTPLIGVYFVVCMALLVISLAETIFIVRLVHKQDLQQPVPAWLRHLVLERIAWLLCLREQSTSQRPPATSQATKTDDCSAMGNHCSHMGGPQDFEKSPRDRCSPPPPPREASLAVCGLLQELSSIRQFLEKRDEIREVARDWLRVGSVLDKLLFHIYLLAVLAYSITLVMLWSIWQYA
Chain of UniProt P52564 (whole entry, looked up): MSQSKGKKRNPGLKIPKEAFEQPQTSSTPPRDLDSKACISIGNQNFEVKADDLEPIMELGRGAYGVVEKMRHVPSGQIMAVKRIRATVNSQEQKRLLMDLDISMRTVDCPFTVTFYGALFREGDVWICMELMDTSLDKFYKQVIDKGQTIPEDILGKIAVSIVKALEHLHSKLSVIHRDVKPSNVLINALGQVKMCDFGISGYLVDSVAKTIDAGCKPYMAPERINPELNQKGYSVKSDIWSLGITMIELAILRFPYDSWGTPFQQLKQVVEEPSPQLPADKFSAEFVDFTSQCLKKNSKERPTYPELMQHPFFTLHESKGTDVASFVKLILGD
Chain of UniProt P25100 (whole entry, looked up): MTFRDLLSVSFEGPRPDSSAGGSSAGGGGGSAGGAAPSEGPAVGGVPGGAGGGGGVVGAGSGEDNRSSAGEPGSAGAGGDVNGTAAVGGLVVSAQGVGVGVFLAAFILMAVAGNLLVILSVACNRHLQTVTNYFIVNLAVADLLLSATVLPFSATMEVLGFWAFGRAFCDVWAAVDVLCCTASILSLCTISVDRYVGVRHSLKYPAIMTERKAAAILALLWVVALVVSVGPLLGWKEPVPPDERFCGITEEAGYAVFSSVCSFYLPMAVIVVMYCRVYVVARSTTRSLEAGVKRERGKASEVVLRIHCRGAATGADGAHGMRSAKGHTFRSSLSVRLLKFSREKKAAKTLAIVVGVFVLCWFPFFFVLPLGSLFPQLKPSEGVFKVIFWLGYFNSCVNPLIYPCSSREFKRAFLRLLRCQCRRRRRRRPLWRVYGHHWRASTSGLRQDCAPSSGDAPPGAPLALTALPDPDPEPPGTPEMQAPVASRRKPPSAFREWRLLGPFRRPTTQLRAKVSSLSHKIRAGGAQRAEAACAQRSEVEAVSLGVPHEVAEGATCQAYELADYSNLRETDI

Set 1
SMILES: CCN1/C(=C/C(C)=O)Sc2ccc(OC)cc21
Effect on: enzyme activity
Mode: inhibitor
Concentration: 0.5 µM
Relative to: control
| target | remaining activity |
| --- | --- |
| WNK2 (Homo sapiens, UniProt Q9Y3S1) | 91.1% |
| PLK2 (Homo sapiens, UniProt Q9NYY3) | 100% |
| EPHA5 (Homo sapiens, UniProt P54756) | 97.8% |
| CHEK1 (Homo sapiens, UniProt O14757) | 87.9% |
| LRRK2 (Homo sapiens, UniProt Q5S007) | 98.1% |
| PRKG1 (Homo sapiens, UniProt Q13976) | 82.4% |
| KIT (Homo sapiens, UniProt P10721) | 67.8% |
| MAP3K10 (Homo sapiens, UniProt Q02779) | 95% |
| Cyclin-dependent kinase 9, with cyclin T1 (CDK9, Homo sapiens, UniProt P50750) | 101% |
| LYN (Homo sapiens, UniProt P07948) | 101% |
| AKT3 (Homo sapiens, UniProt Q9Y243) | 96.1% |
| CSNK1A1 (Homo sapiens, UniProt P48729) | 53% |
| PRKCD (Homo sapiens, UniProt Q05655) | 88.2% |
| MAP2K6 (Homo sapiens, UniProt P52564) | 86.7% |
| PRKCI (Homo sapiens, UniProt P41743) | 97.8% |
| CSNK2A1 (Homo sapiens, UniProt P68400) | 98.1% |
| MAPK13 (Homo sapiens, UniProt O15264) | 105% |
| MKNK2 (Homo sapiens, UniProt Q9HBH9) | 93.8% |
| MAP4K2 (Homo sapiens, UniProt Q12851) | 105% |
| BTK (Homo sapiens, UniProt Q06187) | 101% |
| IRAK4 (Homo sapiens, UniProt Q9NWZ3) | 123% |
| MAPK12 (Homo sapiens, UniProt P53778) | 99.8% |
| NEK4 (Homo sapiens, UniProt P51957) | 92.8% |

Set 2
Compound: CC(C)n1cnc(-c2ccc(F)cc2)c1-c1ncc(C(=O)Nc2ccc(N3CCN(C)CC3)cc2)[nH]1
Method: phase 2a trial
Host: idiopathic pulmonary fibrosis patients
| assay | setting | adverse event incidence [%] |
| --- | --- | --- |
| refers to: synovitis | 60 mg once daily, grade 5 | 0 |
| refers to: appendicitis | 30 mg once daily, grade 1 | 0 |
| refers to: arthritis | dose not given, grade 3, all arms pooled | 0 |
| refers to: infection | 30 mg once daily, grade 2 | 0 |
| refers to: gingivitis | dose not given, grade 3, all arms pooled | 0 |
| refers to: liver injury | 30 mg once daily, grade 2 | 0 |
| refers to: drug eruption | 60 mg once daily, grade 1 | 0 |
| refers to: weight decreased | 30 mg once daily, grade 2 | 0 |
| refers to: ventricular extrasystoles | 30 mg once daily, grade 1 | 0 |
| refers to: ECG ST segment abnormal | dose not given, grade 5, all arms pooled | 0 |
| refers to: QRS axis abnormal | 60 mg once daily, grade 3 | 0 |
| refers to: drug eruption | 30 mg once daily, grade 2 | 0 |
| refers to: hydroxybutyrate dehydrogenase increased | dose not given, grade 2, all arms pooled | 0 |
| refers to: drug eruption | dose not given, grade 4, all arms pooled | 0 |
| refers to: appendicitis | 60 mg once daily, grade 1 | 0 |
| refers to: drug eruption | 60 mg once daily, grade 4 | 0 |
| refers to: liver injury | 30 mg once daily, grade 4 | 0 |

Set 3
Compound: CNC(=O)c1cc(C(=O)N[C@H]2[C@@H]3COC[C@@H]32)cc2c1O[C@@H](CF)[C@@H]2c1ccccc1
Effect on: binding
Method: radioligand binding
Concentration: 10 µM
| target | inhibition [%] |
| --- | --- |
| HRH4 (Homo sapiens, UniProt Q9H3N8) | -13.3 |
| CHRM4 (Homo sapiens, UniProt P08173) | 6.19 |
| HTR7 (Homo sapiens, UniProt P34969) | 1.31 |
| HTR3A (Homo sapiens, UniProt P46098) | 10.6 |
| HTR5A (Homo sapiens, UniProt P47898) | -11.2 |
| ADRA2C (Homo sapiens, UniProt P18825) | 7.66 |
| HRH1 (Homo sapiens, UniProt P35367) | -1.58 |
| ADRA2B (Homo sapiens, UniProt P18089) | 22.8 |
| ADRB3 (Homo sapiens, UniProt P13945) | 31 |
| CHRM2 (Homo sapiens, UniProt P08172) | -7.3 |
| ADRA1B (Homo sapiens, UniProt P35368) | -0.98 |
| DRD1 (Homo sapiens, UniProt P21728) | -6.73 |
| ADRA1D (Homo sapiens, UniProt P25100) | -7.87 |
| HRH2 (Homo sapiens, UniProt P25021) | 4.49 |

Set 4
Compound: CC(=O)N[C@@H](Cc1c[nH]c2ccccc12)C(=O)N[C@@H](CCC(=O)C=[N+]=[N-])C(=O)OC(C)C
Host: C57BL/6 CES1-/- mice, EL4 tumour
Route: subcutaneous
Dose: 0.3 mg/kg/day DON equivalent
Time: 5 days
| assay | test system | setting | scale | metabolite peak intensity |
| --- | --- | --- | --- | --- |
| LC-MS/MS metabolomics, refers to: 3-methylhistidine | EL4 tumour | normalised to tissue mass | higher = more metabolite | 72000 a.u. and 92900 a.u. and 57400 a.u. and 105000 a.u. and 80200 a.u. and 60800 a.u. |
| UPLC-MS/MS metabolomics, refers to: gamma/beta-tocopherol | EL4 tumour | normalised to tissue mass | – | 2.62e+06 a.u. and 2.2e+06 a.u. and 2.04e+06 a.u. and 3.4e+06 a.u. and 1.89e+06 a.u. and 2.65e+06 a.u. |
| UPLC-MS/MS, refers to: isoleucine | EL4, tumour | normalised to tissue mass | higher = more metabolite | 1.65e+09 a.u. and 1.83e+09 a.u. and 1.52e+09 a.u. and 1.47e+09 a.u. and 1.68e+09 a.u. and 1.48e+09 a.u. |
| LC-MS/MS metabolomics, refers to: 3'-CMP | EL4 tumour | normalised to tissue mass | higher = more metabolite | 3.29e+06 a.u. and 5.22e+06 a.u. and 4.7e+06 a.u. and 2.6e+06 a.u. and 4.71e+06 a.u. and 4.25e+06 a.u. |
| LC-MS/MS metabolomics, refers to: 2-methylcitrate/homocitrate | EL4 tumour | normalised to tissue mass | higher = more metabolite | 136000 a.u. and 97600 a.u. and 108000 a.u. and 143000 a.u. and 144000 a.u. |
| LC-MS/MS metabolomics, refers to: mannonate | EL4 tumour | – | higher = more metabolite | 5e+06 a.u. and 3.48e+06 a.u. and 4.92e+06 a.u. and 4.79e+06 a.u. and 4.09e+06 a.u. and 5.08e+06 a.u. |
| LC-MS/MS metabolomics, refers to: ornithine | EL4 tumour | – | higher = more metabolite | 4.88e+08 a.u. and 6.91e+08 a.u. and 7.7e+08 a.u. and 8.61e+08 a.u. and 8.63e+08 a.u. and 6.85e+08 a.u. |
| UPLC-MS/MS metabolomics, refers to: N-alpha-acetylornithine | EL4 tumour | normalised to tissue mass | higher = more metabolite | 345000 a.u. and 343000 a.u. and 226000 a.u. and 315000 a.u. and 224000 a.u. |
| LC-MS/MS metabolomics, refers to: methionine | EL4 tumour | – | higher = more metabolite | 1.96e+09 a.u. and 1.58e+09 a.u. and 2.09e+09 a.u. and 1.83e+09 a.u. and 2.1e+09 a.u. and 1.52e+09 a.u. |
| UPLC-MS/MS, refers to: N-acetylglucosamine 1-phosphate | EL4 tumour | – | – | 660000 a.u. and 808000 a.u. and 705000 a.u. and 821000 a.u. and 425000 a.u. and 1.12e+06 a.u. |
| UPLC-MS/MS, refers to: N-acetyl-1-methylhistidine | EL4 tumour | – | – | 109000 a.u. and 93600 a.u. and 141000 a.u. and 52500 a.u. |
| LC-MS/MS metabolomics, refers to: 2'-deoxyguanosine | EL4 tumour | normalised to tissue mass | higher = more metabolite | 158000 a.u. and 110000 a.u. and 104000 a.u. and 137000 a.u. and 139000 a.u. and 180000 a.u. |
